Experimental data from different studies.
Lines come from different studies, so protocols differ. “And” joins repeats or separate records; there may be more than shown. ± gives the spread as reported.
U2AF2: U2AF2 148-342 (Homo sapiens, UniProt P26368)
Chain of UniProt P26368 (whole entry, looked up): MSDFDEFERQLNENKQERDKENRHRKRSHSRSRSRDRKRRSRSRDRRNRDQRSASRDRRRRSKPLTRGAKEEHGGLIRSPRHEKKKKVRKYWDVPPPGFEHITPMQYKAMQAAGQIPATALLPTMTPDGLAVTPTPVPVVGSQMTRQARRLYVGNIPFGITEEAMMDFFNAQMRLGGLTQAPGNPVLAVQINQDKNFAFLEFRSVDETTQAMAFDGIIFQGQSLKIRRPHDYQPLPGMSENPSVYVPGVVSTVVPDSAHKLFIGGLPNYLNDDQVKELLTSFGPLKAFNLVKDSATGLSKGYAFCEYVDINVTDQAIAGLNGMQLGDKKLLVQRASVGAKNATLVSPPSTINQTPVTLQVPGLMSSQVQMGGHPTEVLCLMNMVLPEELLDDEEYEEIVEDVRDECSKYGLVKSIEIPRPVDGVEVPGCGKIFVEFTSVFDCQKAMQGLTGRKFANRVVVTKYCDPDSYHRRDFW
SPT15 full length assumed: SPT15 full length assumed (Saccharomyces cerevisiae, UniProt P13393)
Chain of UniProt P13393 (whole entry, looked up): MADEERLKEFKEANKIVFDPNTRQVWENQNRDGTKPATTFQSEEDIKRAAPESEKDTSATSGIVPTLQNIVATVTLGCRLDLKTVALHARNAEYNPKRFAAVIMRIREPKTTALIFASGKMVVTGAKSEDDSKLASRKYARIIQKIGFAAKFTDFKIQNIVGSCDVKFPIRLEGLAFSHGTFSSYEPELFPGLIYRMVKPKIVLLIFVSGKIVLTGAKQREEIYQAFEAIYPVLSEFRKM
B1: human RAB1A; sequence looked up; chain SSMNPEYDYLFKLLLIGDSGVGKSCLLLRFADDTYTESYISTIGVDFKIRTIELDGKTIKLQIWDTAGQERFRTITSSYYRGAHGIIVVYDVTDQESFNNVKQWLQEIDRYASENVNKLLVGNKCDLTTKKVVDYTTAKEFADSLGIPFLETSAKNATNVEQSFMTMAAEIKKRMGPGATAGGAEKSNVKIQSTPVKQSGGGCC
B2: PP2A activator (human); sequence looked up; chain AEGERQPPPDSSEEAPPATQNFIIPKKEIHTVPDMGKWKRSQAYADYIGFILTLNEGVKGKKLTFEYRVSEMWNEVHEEKEQAAKQSVSCDECIPLPRAGHCAPSEAIEKLVALLNTLDRWIDETPPVDQPSRFGNKAYRTWYAKLDEEAENLVATVVPTHLAAAVPEVAVYLKESVGNSTRIDYGTGHEAAFAAFLCCLCKIGVLRVDDQIAIVFKVFNRYLEVMRKLQKTYRMEPAGSQGVWGLDDFQFLPFIWGSSQLIDHPYLEPRHFVDEKAVNENHKDYMFLECILFITEMKTGPFAEHSNQLWNISAVPSWSKVNQGLIRMYKAECLEKFPVIQHFKFGSLLPIHPVTSG
B3: sequence looked up; chain SLKVAPKVKATAAPAGAPPQPQDLEFTKLPNGLVIASLENYSPVSRIGLFIKAGSRYEDFSNLGTTHLLRLTSSLTTKGASSFKITRGIEAVGGKLSVTATRENMAYTVECLRGDVDILMEFLLNVTTAPEFRRWEVADLQPQLKIDKAVAFQNPQTHVIENLHAAAYRNALANPLYCPDYRIGKVTSEELHYFVQNHFTSARMALIGLGVSHPVLKQVAEQFLNMRGGLGLSGAKANYRGGEIREQNGDSLVHAAFVAESAVAGSAEANAFSVLQHVLGAGPHVKRGSNTTSHLHQAVAKATQQPFDVSAFNASYSDSGLFGIYTISQATAAGDVIKAAYNQVKTIAQGNLSNTDVQAAKNKLKAGYLMSVESSECFLEEVGSQALVAGSYMPPSTVLQQIDSVANADIINAAKKFVSGQKSMAASGNLGHTPFVDEL
B4: human RECQ1; sequence looked up; chain MASVSALTEELDSITSELHAVEIQIQELTERQQELIQKKKVLTKKIKQCLEDSDAGASNEYDSSPAAWNKEDFPWSGKVKDILQNVFKLEKFRPLQLETINVTMAGKEVFLVMPTGGGKSLCYQLPALCSDGFTLVICPLISLMEDQLMVLKQLGISATMLNASSSKEHVKWVHAEMVNKNSELKLIYVTPEKIAKSKMFMSRLEKAYEARRFTRIAVDEVHCCSQWGHDFRPDYKALGILKRQFPNASLIGLTATATNHVLTDAQKILCIEKCFTFTASFNRPNLYYEVRQKPSNTEDFIEDIVKLINGRYKGQSGIIYCFSQKDSEQVTVSLQNLGIHAGAYHANLEPEDKTTVHRKWSANEIQVVVATVAFGMGIDKPDVRFVIHHSMSKSMENYYQESGRAGRDDMKADCILYYGFGDIFRISSMVVMENVGQQKLYEMVSYCQNISKCRRVLMAQHFDEVWNSEACNKMCDNCCKDSAFERKNITEYCRDLIKILKQAEELNEKLTPLKLIDSWMGKGAAKLRVAGVVAPTLPREDLEKIIAHFLIQQYLKEDYSFTAYATISYLKIGPKANLLNNEAHAITMQVTKSTQNSFRAESSQTCHSEQGDKKMEEKNSGNFQKKAANMLQQSGSKNTGAKKRKIDDA
B5: ATP synthase subunit O, human; sequence looked up; chain FAKLVRPPVQVYGIEGRYATALYSAASKQNKLEQVEKELLRVAQILKEPKVAASVLNPYVKRSIKVKSLNDITAKERFSPLTTNLINLLAENGRLSNTQGVVSAFSTMMSVHRGEVPCTVTSASPLEEATLSELKTVLKSFLSQGQVLKLEAKTDPSILGGMIVRIGEKYVDMSVKTKIQKLGRAMREIV

Molecule	tested on	assay	test system	conditions	scale	quantity	result
ELEIVNYGY	Jurkat expressing engineered TCR	NFAT-eGFP reporter, fluorescence microscopy	peptide	concentration not given, HLA-A*01:01 on EL4 cells		GFP-positive cells	0.359%
epoetin alfa	UT7/EPO	RT-qPCR, measured: NFKBIZ		concentration not given, 90 min, normalized to HPRT1	reference: vehicle	mRNA level	2.7 fold
B1 (human RAB1A)	CYB5R4 knockout human cells	PP4 interaction, 3xFLAG-PP4C IP-MS		concentration not given	reference: CYB5R4 KO over parental	log2 fold change	-2.36
QVDPIGFLF	Jurkat expressing engineered TCR	NFAT-eGFP reporter, fluorescence microscopy	peptide	concentration not given, HLA-A*01:01 on EL4 cells		GFP-positive cells	0.484%
B2 (PP2A activator)	CYB5R4 knockout human cells	PP4 interaction, 3xFLAG-PP4C IP-MS		concentration not given	reference: CYB5R4 KO over parental	log2 fold change	3.4
CAGGUUUCC (ssRNA)	U2AF2	sequencing of bound RNA	RNA	motif only		Kd	5500 nM
Pam2CSK4	BV-2	Western blot, measured: MSR1		concentration not given, unit not given	reference: control	protein level	1.23 and 1.2 and 1.19
TCCTGAAGGGGCGCATATAAAAGGTCCTATCGTCGTCAAGTCAATCGGTCC (dsDNA; 5'-amino-C6 primer)	SPT15 full length assumed	array	double-stranded DNA, one strand shown	TBP alone		Kd	6.09 ± 0.55 nM
heparin	PC-12 cells			100 µg/mL, together with: HBGF-2		cells with neurites	< 5%
ELDYIGHYY	Jurkat expressing engineered TCR	NFAT-eGFP reporter, fluorescence microscopy	peptide	concentration not given, HLA-A*01:01 on EL4 cells		GFP-positive cells	0.609%
B3	CYB5R4 knockout human cells	PP6 interaction, 3xFLAG-PP6C IP-MS		concentration not given	reference: CYB5R4 KO over parental	log2 fold change	-0.98
GTTCCTGAAGGGGGGGCGGGGTGGGTATAAAAGGGTCAAGTCAATCGGTCC (dsDNA; blunt; 5'-amino-C6 primer)	SPT15 full length assumed	EMSA	double-stranded DNA, one strand shown			Kd	170 ± 90 nM
Peginesatide	UT7/EPO	tyrosine phosphorylation, LC-MS/MS phosphoproteomics, GluC, measured: PIK3CA tyrosine 508		10 nM, 15 min, together with: 10 U/mL EPO	reference: vehicle	phosphorylation level	9.1 fold
MTVCNASQRQAHAQATAVSL	H2087	phage binding	peptide		reference: targeting over control phage	selectivity ratio	4.2 ± 0.94
B4 (human RECQ1)	CYB5R4 knockout human cells	PP4 interaction, 3xFLAG-PP4C IP-MS		concentration not given	reference: CYB5R4 KO over parental	log2 fold change	-2.22
ESDIIPLDY	Jurkat expressing engineered TCR	NFAT-eGFP reporter, fluorescence microscopy	peptide	concentration not given, HLA-A*01:01 on EL4 cells		GFP-positive cells	0.507%
UUGUUUCCU (ssRNA)	U2AF2	sequencing of bound RNA	RNA	motif only		Kd	1500 nM
B5 (ATP synthase subunit O, human)	CYB5R4 knockout human cells	PP4 interaction, 3xFLAG-PP4C IP-MS		concentration not given	reference: CYB5R4 KO over parental	log2 fold change	0.0255
ETDPIGYDK	Jurkat expressing engineered TCR	NFAT-eGFP reporter, fluorescence microscopy	peptide	concentration not given, HLA-A*01:01 on EL4 cells		GFP-positive cells	0.395%

Repeated from above:
Molecule	tested on	assay	test system	conditions	scale	quantity	result
B5 (ATP synthase subunit O, human)	CYB5R4 knockout human cells	PP4 interaction, 3xFLAG-PP4C IP-MS		concentration not given	reference: CYB5R4 KO over parental	log2 fold change	0.0255
QVDPIGFLF	Jurkat expressing engineered TCR	NFAT-eGFP reporter, fluorescence microscopy	peptide	concentration not given, HLA-A*01:01 on EL4 cells		GFP-positive cells	0.484%
